# Assay results collected from several papers.
# A part holds a random share of what one study measured.

# Block 1 — technique: protein-binding microarray; molecule type: double-stranded DNA, one strand shown; sample: in vitro; tested at: 2200 nM top; notes: 60-bp whole probe; with: salmon DNA 0.4 mg/ml; baseline: random background probes; direction: higher = stronger binding
# Target: Interferon regulatory factor 7, full length, phosphomimetic (IRF7, Homo sapiens, UniProt Q92985, residues 1-503, S471D/S472D/S475D/S476D/S477D/S483D/S484D/S487D)
# UniProt Q92985, sequence (whole entry, unmodified, looked up): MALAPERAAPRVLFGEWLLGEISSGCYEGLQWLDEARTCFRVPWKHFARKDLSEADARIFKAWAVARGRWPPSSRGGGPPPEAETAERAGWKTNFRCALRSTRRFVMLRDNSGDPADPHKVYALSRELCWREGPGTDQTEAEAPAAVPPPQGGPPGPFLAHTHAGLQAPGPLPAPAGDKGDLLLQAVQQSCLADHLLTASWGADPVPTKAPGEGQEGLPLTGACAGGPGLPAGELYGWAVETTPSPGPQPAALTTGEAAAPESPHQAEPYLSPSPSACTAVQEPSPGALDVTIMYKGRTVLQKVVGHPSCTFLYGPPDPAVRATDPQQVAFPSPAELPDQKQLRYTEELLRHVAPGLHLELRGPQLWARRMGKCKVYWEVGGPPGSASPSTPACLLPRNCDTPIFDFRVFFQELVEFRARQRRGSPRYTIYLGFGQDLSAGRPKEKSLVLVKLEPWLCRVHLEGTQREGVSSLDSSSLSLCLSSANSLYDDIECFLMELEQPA
# Shared flanks, not repeated: GCCTAGCAC … GTGCTAGGTCTTGATTCGCTTGACGCTGCTG
Oligonucleotide,fitted relative affinity [z-score]
CACACCCGGCTCCTCTGCCA,0.0268
GACGAACTGAGACTAGAGAC,-0.293
TTAGGTCTCGGTTTCCGTTA,3.63
GAGGGTTTCGGTTTCGGGAC,12.6
GACGGTTCCGGTTCCGGGAC,2.18

# Block 2 — technique: protein binding microarray; molecule type: double-stranded DNA, one strand shown; sample: in vitro; tested at: not given; baseline: not given; direction: higher = stronger binding
# Target: Histone acetyltransferase KAT6A, winged helix 2, GST fusion (KAT6A, Homo sapiens, UniProt Q92794, residues 85-181)
# Notes: 8-mer, flanks averaged, mean of 2 arrays, mostly near background
# Construct (chain): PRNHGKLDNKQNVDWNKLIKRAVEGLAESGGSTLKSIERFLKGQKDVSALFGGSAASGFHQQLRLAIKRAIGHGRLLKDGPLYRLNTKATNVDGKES
Oligonucleotide,E-score
AAAGTACG,-0.00568
TAGGAGGA,-0.0478
CTTCACCC,0.152
GCAGTACC,0.0844
AGTAAAGA,-0.0856
ACGACAAC,-0.00146
GCTGAATA,-0.019
ACAGTTTA,-0.0423

# Block 3 — technique: RNA Bind-n-Seq; molecule type: RNA; sample: in vitro; tested at: 365 nM; baseline: no-protein control; direction: higher = stronger binding
# Target: RNA binding protein fox-1 homolog 2, RRM domain, GST-SBP tag (RBFOX2, Homo sapiens, UniProt O43251-10, residues 100-194)
# Notes: natural RNA segment, single round, ends assumed
# Shared flanks, not repeated: GGGAGUUCUACAGUCCGACGAUC … UGGAAUUCUCGGGUGCCAA
Oligonucleotide,RBNS enrichment (R)
AGAGCCUGUGAUAGUUGCUGUGGGCAGCCAGUUCCUGGGGCUUCCUCUUGGGCCCCCUGCACUCGGUCUCCCCUGGAGUUUCUGAAUUCUCUCACCCAAGUCCCUACACA,0.431
AAACAGGAGAGAAAGGGGAUGUAUCCAUGGGGGCAGGGCAUGACUUUGUCCCAUUUCUAAAGGCCUCUUCCUUGCUGUGUCAUACCAGGCCGCCCCAGCCUCUGAGCCCC,0.417
AAGGAAAAAGGCUAAUCUAAGUUCCUGCGGGCAGUGGCAUGACUGGAGCACAGCCUCCUGCCUCCCAGCCCGGACCCAAUGCACUUUCUUGUCUCCUCUAAUAAGCCCCA,0.592
CAGGUGCCUUUUGGACAGUUGUGCUGAGCCUGGCAUCACAGACACCAGCAUGCACUUCAGGAUCAUUAGUGUAUUUAGAAUCUGUAAAAAUAAUAAAUAUGUUUGAAACA,0.644
UUUAUAAUUCUGGGAAGCAAAACCCAUGCCUCCCCCUAGCCAUUUUUACUGUUAUCCUAUUUAGAUGGCCAUGAAGAGGAUGCUGUGAAAUUCCCAACAAACAUUGAUGC,0.404
UCAUUCAAAAAGGCUUCCAAGGCCAAUUCUGUCUUGAAGUCAAUGCAUGUAUUUACUGUUUGACAGUAAACCCGCUCUGCCUUCUCCACGUCCAAGGCUGUGCAUUCGUC,1.21
CACAGCCCAAGGAGGAAAUGAUCACAGCUGGGGUUGAAGGCUUCACCUGCACAUCACUGCACAGACCUGAUUUGUGUCCCAGUGGACUUGUCCAAUGGAUGAAGUUGAUU,0.377
CCCUUGAGGCCGCACAAGCUACUGCAGCCAUGGGUUUGCCUACCACCUUUCUGUUCUGUGGACUCGGUGCAGGUGGGUGGGGUGGUAAACAGUGGAAGAGCUCCUCCCCC,0.716
UGUAUGCUUCCAGGUGGAGGAGAAAGGGGAAUCUCCCAAAAUUUAAAAACAAAUUGGAAGAAUAACCAGGACAGCCAAGUGAAGCAGCCACAGGGACCCAAGCAGUCGAG,0.704

# Further values, each from its own experiment
Substance,target,test,test system,conditions,how to read,measurement,result
"PhoQ, residues 284 288 289 292 302 303 ALASRC","PhoP, residues 12 14 15 18 19 YHFSH (Escherichia coli, UniProt P23836)","Sort-seq, measured: YFP reporter",E. coli,"PhoQ-PhoP variant library, with: 10 µM Mg2+","baseline: high Mg2+ state, higher = stronger signaling",fold induction,8.74
